Assay results collected from several papers.
Parts stem from different laboratories: compare values within a part only.
UniProt O60674, sequence (whole entry, looked up): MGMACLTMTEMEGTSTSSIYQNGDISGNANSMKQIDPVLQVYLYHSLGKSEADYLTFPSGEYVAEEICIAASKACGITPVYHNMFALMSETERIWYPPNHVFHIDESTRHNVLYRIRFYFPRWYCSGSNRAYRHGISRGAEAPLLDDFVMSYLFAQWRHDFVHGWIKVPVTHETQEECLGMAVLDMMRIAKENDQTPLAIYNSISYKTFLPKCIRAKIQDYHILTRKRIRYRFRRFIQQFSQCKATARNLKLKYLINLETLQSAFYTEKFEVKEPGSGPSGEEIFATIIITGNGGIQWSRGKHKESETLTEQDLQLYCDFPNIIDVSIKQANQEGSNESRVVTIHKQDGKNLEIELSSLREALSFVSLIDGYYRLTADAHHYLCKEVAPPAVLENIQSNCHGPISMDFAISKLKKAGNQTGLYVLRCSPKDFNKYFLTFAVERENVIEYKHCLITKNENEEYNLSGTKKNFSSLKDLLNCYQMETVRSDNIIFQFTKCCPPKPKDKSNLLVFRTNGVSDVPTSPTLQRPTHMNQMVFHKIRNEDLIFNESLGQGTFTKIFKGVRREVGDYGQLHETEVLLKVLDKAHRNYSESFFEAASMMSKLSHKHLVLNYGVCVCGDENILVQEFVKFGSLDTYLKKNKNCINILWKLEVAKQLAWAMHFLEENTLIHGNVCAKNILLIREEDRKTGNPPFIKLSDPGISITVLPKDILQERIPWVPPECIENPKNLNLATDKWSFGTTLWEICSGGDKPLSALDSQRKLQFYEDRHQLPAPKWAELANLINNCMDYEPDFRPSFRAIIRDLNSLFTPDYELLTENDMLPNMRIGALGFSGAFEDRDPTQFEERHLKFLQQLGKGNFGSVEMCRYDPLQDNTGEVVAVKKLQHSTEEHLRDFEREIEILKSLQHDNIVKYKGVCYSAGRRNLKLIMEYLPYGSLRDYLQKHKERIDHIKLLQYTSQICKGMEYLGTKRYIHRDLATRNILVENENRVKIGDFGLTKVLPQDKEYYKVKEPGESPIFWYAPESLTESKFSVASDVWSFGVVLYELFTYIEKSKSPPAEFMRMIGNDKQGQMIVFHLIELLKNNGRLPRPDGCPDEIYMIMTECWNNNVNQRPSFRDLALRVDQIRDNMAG
UniProt P23458, sequence (whole entry, looked up): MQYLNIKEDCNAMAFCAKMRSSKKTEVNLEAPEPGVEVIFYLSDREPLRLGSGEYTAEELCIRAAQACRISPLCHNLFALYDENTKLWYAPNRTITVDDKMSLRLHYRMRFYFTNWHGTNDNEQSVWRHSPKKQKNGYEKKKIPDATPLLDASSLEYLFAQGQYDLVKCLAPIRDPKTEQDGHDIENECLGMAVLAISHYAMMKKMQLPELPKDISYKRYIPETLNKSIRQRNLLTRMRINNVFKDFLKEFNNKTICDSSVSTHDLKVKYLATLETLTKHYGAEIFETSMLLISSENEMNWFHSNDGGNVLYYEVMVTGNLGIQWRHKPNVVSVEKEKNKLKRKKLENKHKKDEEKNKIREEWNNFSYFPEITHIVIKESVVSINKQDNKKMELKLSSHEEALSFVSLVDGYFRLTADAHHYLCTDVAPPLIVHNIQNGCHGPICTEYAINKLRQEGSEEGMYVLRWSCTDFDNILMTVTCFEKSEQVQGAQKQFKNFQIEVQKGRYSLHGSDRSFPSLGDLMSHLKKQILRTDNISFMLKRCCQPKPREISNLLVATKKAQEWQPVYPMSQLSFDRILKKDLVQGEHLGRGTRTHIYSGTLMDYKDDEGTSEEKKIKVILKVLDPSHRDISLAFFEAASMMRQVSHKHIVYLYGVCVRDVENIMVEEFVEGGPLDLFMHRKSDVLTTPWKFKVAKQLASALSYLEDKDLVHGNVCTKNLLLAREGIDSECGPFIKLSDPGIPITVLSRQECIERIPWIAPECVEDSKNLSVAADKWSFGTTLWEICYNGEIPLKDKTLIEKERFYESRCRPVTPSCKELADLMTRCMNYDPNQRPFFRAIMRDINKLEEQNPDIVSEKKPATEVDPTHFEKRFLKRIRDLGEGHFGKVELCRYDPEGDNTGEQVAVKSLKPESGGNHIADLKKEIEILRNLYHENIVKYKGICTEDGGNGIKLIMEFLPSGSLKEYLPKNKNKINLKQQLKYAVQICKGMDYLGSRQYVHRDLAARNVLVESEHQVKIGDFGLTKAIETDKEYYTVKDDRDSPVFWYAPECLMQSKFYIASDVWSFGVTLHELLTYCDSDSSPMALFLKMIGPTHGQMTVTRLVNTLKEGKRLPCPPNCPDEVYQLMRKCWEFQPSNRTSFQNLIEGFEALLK
UniProt P51812, sequence (whole entry, looked up): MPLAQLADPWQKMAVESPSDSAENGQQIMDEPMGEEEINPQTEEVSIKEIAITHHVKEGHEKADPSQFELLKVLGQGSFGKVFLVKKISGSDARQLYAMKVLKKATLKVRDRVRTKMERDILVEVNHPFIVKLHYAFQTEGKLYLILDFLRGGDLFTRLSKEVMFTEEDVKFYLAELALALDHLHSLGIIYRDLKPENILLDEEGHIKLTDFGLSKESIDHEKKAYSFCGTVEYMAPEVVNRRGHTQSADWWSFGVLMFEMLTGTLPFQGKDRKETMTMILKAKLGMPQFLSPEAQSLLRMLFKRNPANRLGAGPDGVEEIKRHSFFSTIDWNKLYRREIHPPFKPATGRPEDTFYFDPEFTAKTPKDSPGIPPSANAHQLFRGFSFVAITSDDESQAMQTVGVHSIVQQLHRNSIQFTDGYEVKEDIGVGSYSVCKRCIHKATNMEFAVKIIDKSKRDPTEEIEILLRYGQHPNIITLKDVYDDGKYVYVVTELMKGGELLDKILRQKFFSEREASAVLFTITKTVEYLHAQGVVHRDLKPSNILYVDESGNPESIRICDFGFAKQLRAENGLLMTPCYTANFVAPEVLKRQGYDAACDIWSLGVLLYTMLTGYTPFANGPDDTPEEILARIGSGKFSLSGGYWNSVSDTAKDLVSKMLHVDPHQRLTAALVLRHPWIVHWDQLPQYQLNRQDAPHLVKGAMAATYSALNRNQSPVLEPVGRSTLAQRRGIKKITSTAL
UniProt Q04759, sequence (whole entry, looked up): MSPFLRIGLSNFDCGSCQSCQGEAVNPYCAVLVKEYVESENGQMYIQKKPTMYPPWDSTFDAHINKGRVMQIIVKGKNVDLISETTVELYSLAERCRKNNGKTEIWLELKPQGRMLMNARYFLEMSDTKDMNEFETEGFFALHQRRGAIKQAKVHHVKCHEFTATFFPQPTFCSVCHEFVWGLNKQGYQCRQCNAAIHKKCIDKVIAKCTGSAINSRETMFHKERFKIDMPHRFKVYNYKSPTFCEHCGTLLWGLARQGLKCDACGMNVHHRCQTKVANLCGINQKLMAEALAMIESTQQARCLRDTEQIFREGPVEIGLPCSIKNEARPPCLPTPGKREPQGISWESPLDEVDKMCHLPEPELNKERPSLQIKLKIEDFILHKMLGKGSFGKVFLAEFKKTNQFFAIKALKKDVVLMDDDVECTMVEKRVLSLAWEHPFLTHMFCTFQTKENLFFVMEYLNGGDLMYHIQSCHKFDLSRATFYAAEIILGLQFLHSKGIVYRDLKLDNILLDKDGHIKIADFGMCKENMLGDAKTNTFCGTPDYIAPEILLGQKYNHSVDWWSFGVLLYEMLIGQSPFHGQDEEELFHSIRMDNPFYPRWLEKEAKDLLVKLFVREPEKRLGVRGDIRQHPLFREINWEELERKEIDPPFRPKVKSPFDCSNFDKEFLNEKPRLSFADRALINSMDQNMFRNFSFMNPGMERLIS
UniProt Q05513, sequence (whole entry, looked up): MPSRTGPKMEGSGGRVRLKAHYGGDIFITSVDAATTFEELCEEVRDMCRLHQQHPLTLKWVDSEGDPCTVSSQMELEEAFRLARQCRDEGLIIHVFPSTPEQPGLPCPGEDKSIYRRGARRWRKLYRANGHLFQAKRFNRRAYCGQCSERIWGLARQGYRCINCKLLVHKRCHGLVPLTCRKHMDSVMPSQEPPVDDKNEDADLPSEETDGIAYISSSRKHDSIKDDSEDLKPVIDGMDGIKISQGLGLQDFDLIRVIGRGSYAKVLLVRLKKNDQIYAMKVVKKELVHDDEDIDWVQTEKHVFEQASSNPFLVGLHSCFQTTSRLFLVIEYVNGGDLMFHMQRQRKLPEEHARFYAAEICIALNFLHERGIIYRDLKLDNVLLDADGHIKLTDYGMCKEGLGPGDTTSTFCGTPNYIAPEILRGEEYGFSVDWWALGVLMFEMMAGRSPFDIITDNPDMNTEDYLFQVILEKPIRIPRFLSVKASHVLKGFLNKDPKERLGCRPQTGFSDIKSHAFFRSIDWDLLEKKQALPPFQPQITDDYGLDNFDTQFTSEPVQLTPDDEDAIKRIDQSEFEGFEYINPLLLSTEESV
UniProt P49760, sequence (whole entry, looked up): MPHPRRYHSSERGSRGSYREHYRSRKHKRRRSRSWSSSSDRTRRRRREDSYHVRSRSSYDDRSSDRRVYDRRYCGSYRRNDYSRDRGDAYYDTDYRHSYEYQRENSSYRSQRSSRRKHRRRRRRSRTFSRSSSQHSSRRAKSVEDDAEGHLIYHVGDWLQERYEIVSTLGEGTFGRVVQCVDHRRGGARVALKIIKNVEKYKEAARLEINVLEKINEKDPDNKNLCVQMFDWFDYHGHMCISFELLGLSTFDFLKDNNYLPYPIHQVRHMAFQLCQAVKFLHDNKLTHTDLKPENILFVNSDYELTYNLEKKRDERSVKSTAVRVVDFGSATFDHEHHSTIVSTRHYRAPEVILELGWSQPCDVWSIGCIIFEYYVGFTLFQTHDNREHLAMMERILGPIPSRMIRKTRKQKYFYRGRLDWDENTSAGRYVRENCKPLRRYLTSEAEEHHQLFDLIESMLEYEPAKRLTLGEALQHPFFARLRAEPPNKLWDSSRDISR

Study 1
Compound: O=C1NC(=O)/C(=C/c2ccc3c(c2)OC(F)(F)O3)S1
Observed: enzyme activity
Mode: inhibitor
Tested at: 0.5 µM
Reference: control
Endpoint: remaining activity
target = FLT1 (Homo sapiens, UniProt P17948); result = 81.5%
target = EPHA2 (Homo sapiens, UniProt P29317); result = 96.3%
target = CLK1 (Homo sapiens, UniProt P49759); result = 102%
target = CAMKK1 (Homo sapiens, UniProt Q8N5S9); result = 86%
target = CSNK1D (Homo sapiens, UniProt P48730); result = 98.9%
target = TYRO3 (Homo sapiens, UniProt Q06418); result = 99.6%
target = TEC (Homo sapiens, UniProt P42680); result = 108%
target = JAK1 (Homo sapiens, UniProt P23458); result = 104%
target = SGK2 (Homo sapiens, UniProt Q9HBY8); result = 82.2%
target = MAP3K20 (Homo sapiens, UniProt Q9NYL2); result = 97.6%
target = PRKCQ (Homo sapiens, UniProt Q04759); result = 101%
target = PRKCZ (Homo sapiens, UniProt Q05513); result = 103%
target = Cyclin-dependent kinase 2, with cyclin E (CDK2, Homo sapiens, UniProt P24941); result = 89.9%
target = CAMK1 (Homo sapiens, UniProt Q14012); result = 89.9%
target = CLK2 (Homo sapiens, UniProt P49760); result = 96.6%
target = SRPK1 (Homo sapiens, UniProt Q96SB4); result = 105%
target = RPS6KA3 (Homo sapiens, UniProt P51812); result = 103%
target = CSNK1E (Homo sapiens, UniProt P49674); result = 96.9%
target = EPHA6 (Homo sapiens, UniProt Q9UF33); result = 83.1%
target = PAK6 (Homo sapiens, UniProt Q9NQU5); result = 103%
target = IGF1R (Homo sapiens, UniProt P08069); result = 101%

Study 2
Cell line: HaCaT
Tested at: 100 µM
Time: 36 h
Endpoint: viability
SMILES = CCOC(=O)[C@H](CCc1ccccc1)N[C@H]1CCc2ccccc2N(CC(=O)O)C1=O; result = 95.5%
SMILES = Cc1onc(-c2ccccc2Cl)c1C(=O)N[C@@H]1C(=O)N2[C@@H]1SC(C)(C)[C@@H]2C(=O)O; result = 91.3%
SMILES = N=C(N/N=C/c1ccc(Cl)cc1)N/N=C/c1ccc(Cl)cc1; result = 7.81%
SMILES = CCCCCCCCN=c1ccn(CCCCCCCCCCn2ccc(=NCCCCCCCC)cc2)cc1; result = 7.07%
SMILES = COc1ccc([C@@H]2CC(=O)c3c(O)cc(O)cc3O2)cc1O; result = 77.2%
SMILES = CCCS(=O)(=O)Nc1ccc(F)c(C(=O)c2c[nH]c3ncc(-c4ccc(Cl)cc4)cc23)c1F; result = 7.05%
SMILES = CC1CNc2c(cccc2S(=O)(=O)N[C@@H](CCCNC(=N)N)C(=O)N2CC[C@@H](C)C[C@@H]2C(=O)O)C1 (some centres unmarked); result = 84.2%
SMILES = Cc1ccc2c(Cl)cc(Cl)c(O)c2n1; result = 6.26%
SMILES = COc1cccc(N(C)C(=S)Oc2ccc3c(c2)CCCC3)n1; result = 83.4%
SMILES = CN(C)CCCN1c2ccccc2Sc2ccccc21; result = 4.95%

Study 3
SMILES: CC1=C(C#N)[C@@H](c2ccc3[nH]nc(C)c3c2)C(C#N)=C(c2ccc(Cl)cc2)N1
Observed: cell-free assay
Method: competition with immobilised ligand
Tested at: 1 µM
Endpoint: remaining binding
target = Tyrosine-protein kinase ABL1, non-phosphorylated (ABL1, Homo sapiens, UniProt P00519, Q252H); result = 43.8%
target = MAPK7 (Homo sapiens, UniProt Q13164); result = 90%
target = MAP3K9 (Homo sapiens, UniProt P80192); result = 90.4%
target = Tyrosine-protein kinase JAK2, JH1 (JAK2, Homo sapiens, UniProt O60674); result = 100%
target = Ribosomal protein S6 kinase alpha-5, N-terminal kinase domain (RPS6KA5, Homo sapiens, UniProt O75582); result = 100%
target = Non-receptor tyrosine-protein kinase TYK2, JH2 (TYK2, Homo sapiens, UniProt P29597); result = 100%
target = MAP2K5 (Homo sapiens, UniProt Q13163); result = 49.9%
target = MINK1 (Homo sapiens, UniProt Q8N4C8); result = 77%
target = TBK1 (Homo sapiens, UniProt Q9UHD2); result = 58.7%

Study 4
Species: mouse
Matrix: microsomes or S9
Tested at: 2 µM
Time: 0.5 h
Endpoint: remaining compound
SMILES = CC(C)c1noc(CCCn2ccc(-c3ccc(-c4nnn[nH]4)cc3)n2)n1; result = 79.9%
SMILES = O=S(=O)(Cc1ccccc1)N1CC[C@H](c2ccccc2)[C@H]2NCCCC[C@H]21; result = 0.861%
SMILES = CC1(C)Cc2ccccc2C(C2=NC(C)(C)Cc3ccccc32)=N1; result = < 1%
SMILES = CNS(=O)(=O)c1cn(CC(=O)NCc2ccccc2OC)cc1S(=O)(=O)NC; result = 44.7%
SMILES = O=C1C2C3C=CC(O3)C2C(=O)N1Nc1ccccc1 (centres unmarked); result = 45.6%
SMILES = CN(Cc1nccs1)S(=O)(=O)c1ccc2c(c1)CN(S(C)(=O)=O)CC2; result = 13%

Single results of other studies
SMILES = CC(C)S(=O)(=O)c1ccc2nccc(Nc3ccc4sc(C5CCCC5)nc4c3)c2c1; target = Receptor-interacting serine/threonine-protein kinase 3 (RIPK3, Homo sapiens, UniProt Q9Y572); test = kinase activity, inhibitor, ADP-Glo; setting = 0.412 nM, 1 h; endpoint = inhibition; result = 38.5%

Some of these lines once more (study 1):
target = MAP3K20 (Homo sapiens, UniProt Q9NYL2); result = 97.6%
target = FLT1 (Homo sapiens, UniProt P17948); result = 81.5%
target = PRKCZ (Homo sapiens, UniProt Q05513); result = 103%
target = CLK1 (Homo sapiens, UniProt P49759); result = 102%
target = TEC (Homo sapiens, UniProt P42680); result = 108%
